Published values from different studies.
Compare with care: the assays were run in different laboratories. “And” joins repeats or separate records; there may be more than shown. ± gives the spread as reported.

Compound | test | test system | conditions | how to read | quantity | result
COc1ccc2nc3cc(Cl)ccc3c(Nc3cc(CN4CCCC4)c(O)c(CN4CCCC4)c3)c2n1 | – | mouse, blood | intraperitoneal, 14 mg/kg | – | mean corpuscular haemoglobin | 16.9 pg
CN1CCN(S(=O)(=O)c2cc([N+](=O)[O-])ccc2N(CCOS(C)(=O)=O)CCOS(C)(=O)=O)CC1 | – | naive NOD/SCID mice, pooled blood | intraperitoneal, 25 mg/kg, week 4 | – | ALT | 32 U/L
N[C@@H]1c2ccccc2OC12CCN(c1cnc3c(N4CCCc5ncccc54)n[nH]c3n1)CC2 | – | advanced metastatic solid tumour patients | oral, 100 mg once daily | – | TEAE leading to withdrawal | 14.3%
CC(C)CC(=O)OC[C@H]1O[C@@](C#N)(c2ccc3c(N)ncnn23)[C@H](O)[C@@H]1O | – | rat whole blood | 5 µM, 60 min | – | remaining compound | 0%
CO[C@H]1C[C@@H]2CC[C@@H](C)[C@@](O)(O2)C(=O)C(=O)N2CCCC[C@H]2C(=O)O[C@H]([C@H](C)C[C@@H]2CC[C@@H](OC(=O)NCCOCCOCCOCCOCCOCCOCCOCCOCCC(=O)N3CCc4cc(Cn5nc(-c6ccc7oc(N)nc7c6)c6c(N)ncnc65)ccc4C3)[C@H](OC)C2)C[C@@H](O)[C@H](C)/C=C(\C)[C@@H](O)[C@@H](OC)C(=O)[C@H](C)C[C@H](C)/C=C/C=C/C=C/1C | – | patients with advanced solid tumours | intravenous, 12 mg weekly, any grade | – | maculopapular rash incidence | 16.7%
O=S(=O)(Nc1ccccc1)c1ccc(NC(=S)Nc2ccccc2)cc1 | measured: Bu | female mouse, blood | oral, 20 mg/kg daily, 14 days | – | blood chemistry level | 0.17 mg/dL
N=C(N)NCCC[C@@H](NC(=O)[C@@H](N)Cc1ccccc1)C(=O)N[C@@H](Cc1ccccc1)C(=O)N[C@@H](CCCCN)C(N)=O | LC-MS | human, urine | subcutaneous, 15 mg, 5.833 h, median | – | fraction of dose excreted unchanged | 35%
CC(C)C[C@H](NC(=O)[C@H](CCCCN)NC(=O)OCC1c2ccccc2-c2ccccc21)C(=O)N[C@H](C(=O)N[C@@H](Cc1ccccc1)C(=O)N[C@@H](Cc1ccccc1)C(=O)N[C@@H](CCCCN)C(=O)NCC(=O)N[C@@H](Cc1ccccc1)C(=O)N[C@@H](C)C(=O)N[C@@H](Cc1c[nH]c2ccccc12)C(=O)N[C@@H](CC(N)=O)C(=O)N[C@H](C(=O)N[C@H]1CSSC[C@@H](C(=O)N[C@@H](Cc2c[nH]cn2)C(=O)N[C@@H](CCCNC(=N)N)C(=O)N[C@@H](CCCNC(=N)N)C(=O)N[C@@H](C)C(=O)N[C@@H](CC(N)=O)C(N)=O)NC(=O)[C@H](C(C)C)NC(=O)[C@H](CCCNC(=N)N)NC(=O)[C@H](C(C)C)NC(=O)CNC(=O)[C@H](CC(N)=O)NC(=O)[C@H](CCCNC(=N)N)NC(=O)[C@H](Cc2ccc(O)cc2)NC(=O)[C@H](C(C)C)NC1=O)C(C)C)C(C)C | – | ICR mice, serum | intraperitoneal, 5 mg/kg, day 5 | – | ALT | 48.8 ± 3.05 IU/L
CCCCCCCCCCCCCCCC(=O)N[C@@H](CCC(=O)NCCCC[C@H](NC(=O)[C@H](CC(=O)O)NC(=O)[C@H](CO)NC(=O)[C@@H](NC(=O)[C@H](Cc1ccccc1)NC(=O)[C@@H](NC(=O)CNC(=O)[C@H](CCC(N)=O)NC(=O)[C@H](CO)NC(=O)[C@@H](N)Cc1c[nH]cn1)[C@@H](C)O)[C@@H](C)O)C(=O)N[C@@H](CO)C(=O)N[C@@H](CCC(=O)O)C(=O)N[C@@H](Cc1ccc(O)cc1)C(=O)N[C@@H](CC(C)C)C(=O)N[C@@H](CC(=O)O)C(=O)N[C@@H](CO)C(=O)N[C@@H](CCC(=O)O)C(=O)N[C@@H](CCCNC(=N)N)C(=O)N[C@@H](C)C(=O)N[C@@H](CCCNC(=N)N)C(=O)N[C@@H](CC(=O)O)C(=O)N[C@@H](Cc1ccccc1)C(=O)N[C@H](C(=O)N[C@@H](C)C(=O)N[C@@H](Cc1c[nH]c2ccccc12)C(=O)N[C@@H](CC(C)C)C(=O)N[C@@H](CCC(=O)O)C(=O)N[C@@H](C)C(=O)NCC(=O)NCC(=O)O)C(C)C)C(=O)O | measured: Tachycardia | humans CrCl 45 to 60 mL/min | subcutaneous, 100 µg single dose | – | treatment-related adverse events | 0%
C[C@@H](NC(=O)N1C(=O)[C@H](Cc2ccnc(N)c2)[C@H]1C(=O)O)C1CCCCC1 | – | healthy adult Chinese volunteers | continuous intravenous infusion, 1.0 mg/kg/h, 5-day infusion, CTCAE 5.0 grading | – | incidence of elevated blood uric acid | 0%
CC[C@H](C)CCCCC(=O)N[C@@H](CCN)C(=O)N[C@H](C(=O)N[C@@H](CCN)C(=O)N[C@H]1CCNC(=O)[C@H]([C@@H](C)O)NC(=O)[C@H](CCN)NC(=O)[C@H](CCN)NC(=O)[C@H](CC(C)C)NC(=O)[C@@H](CC(C)C)NC(=O)[C@H](CCN)NC1=O)[C@@H](C)O | – | rat | intravenous, 5 mg/kg | – | AUC extrapolated percentage | 0.0795%
[2H]C([2H])([18F])[C@]([2H])(N)C(=O)O | dynamic PET | U-87 MG tumour-bearing mice, blood | – | – | blood half-life | 44.4 s
Cn1cncc1-c1c(F)cncc1NC(=O)c1c(N)nn2cc(F)cnc12 | – | human patients | oral, dose not given, 21 days, all doses | – | upper gastrointestinal haemorrhage DLT | 2%
O=c1ccc2ccccc2o1 | calculated from % plasma protein binding | human | – | – | fraction unbound in plasma | 0.31
CC(C)[C@@H]1CC[C@@H](C)C[C@@H]1O | acute oral toxicity OECD | Swiss albino mice, serum | oral, 1000 mg/kg | – | blood urea nitrogen | 29.2 ± 4.43 mg/dL
COc1ccnc(C(=O)N[C@H]2COC(=O)[C@H](Cc3ccccc3)[C@@H](OC(=O)C(C)C)[C@H](C)OC2=O)c1OCOC(=O)C(C)C | – | cabbage | concentration not given, foliar application | – | share of total radioactive residue | ≤ 96 % TRR
O=C(Nc1ccccc1)C1CCN(C(=O)Oc2cccnc2)CC1 | psychotropic effects VAS | healthy women | 100 mg | reference: pre-dose baseline, direction not given | change in Thoughts score | 0.3
CCc1ccc(CC/C=C/c2ccc3c(c2)C(=O)CC3)cc1 | – | Sprague-Dawley rat, female | oral, 30 mg/kg/day, 14 days | – | Eosinophil percentage | 0.77%

Compound | test | test system | conditions | how to read | quantity | result
C=CC(=O)N1CC[C@H](n2nc(C#Cc3cc(OC)cc(OC)c3)c3c(N)ncnc32)C1 | – | patients with advanced solid tumours | oral, dose not given, Hyperphosphatemia, any grade, QD, added: sevelamer hydrochloride | – | adverse drug reaction incidence | 100%
NCCCC[C@@H]1NC(=O)[C@@H](Cc2c[nH]c3ccccc23)NC(=O)[C@H](c2ccccc2)NC(=O)[C@@H]2C[C@@H](OC(=O)NCCN)CN2C(=O)[C@H](Cc2ccccc2)NC(=O)[C@H](Cc2ccc(OCc3ccccc3)cc2)NC1=O | – | healthy volunteers, female | 600 µg twice daily, 1.5 h, post hoc | – | placebo-corrected QTcF change | 11.7 ms
C[C@]1(CO)Cc2ncn(-c3ccc(C#N)c(Cl)c3)c2C(=O)O1 | – | human, plasma | 40 mg single dose, median | – | tmax | 1.5 h
C=CC(=O)N[C@H]1C=C(C)c2c(-c3cnc4ccccc4c3)c3c(N)ncnc3n2C1 | two-compartment PK model | mouse, plasma | oral, dose not given | – | peripheral volume of distribution | 3.83 L
O=C(O)CCC(CP(=O)(O)O)C(=O)O (centres unmarked) | – | male NSG mice, C4-2 xenograft, plasma | intravenous, 3 mg/kg molar equivalent, 0.25 to 6 h | – | AUC(0-t) | 33.5 ± 6.1 µM·h
Oc1ccc(Cl)c(-c2cc(Cl)c(Cl)cc2Cl)c1Cl | enantioselective gas chromatography | racemized sample | column temperature 140 °C | – | enantiomeric fraction | 0.5
[O-][S+]1CCc2nc(N3CCC(c4ncc(Cl)cn4)CC3)nc(NC3(CO)CCC3)c21 (centres unmarked) | measured: abdominal distension | healthy male humans | 36 mg single dose | – | adverse event incidence | 0%
CC[C@H](C)[C@H](NC(=O)[C@H](CCCCN)NC(=O)[C@H](CCC(=O)O)NC(=O)[C@H](CCCCN)NC(=O)[C@H](CO)NC(=O)[C@H](CCCCN)NC(=O)[C@H](CCCNC(=N)N)NC(=O)[C@H](Cc1ccccc1)NC(=O)[C@H](Cc1ccccc1)NC(=O)[C@H](CC(=O)O)NC(=O)CNC(=O)[C@H](CC(C)C)NC(=O)[C@@H](N)CC(C)C)C(=O)NCC(=O)N[C@@H](CCCCN)C(=O)N[C@@H](CCC(=O)O)C(=O)N[C@@H](Cc1ccccc1)C(=O)N[C@@H](CCCCN)C(=O)N[C@@H](CCCNC(=N)N)C(=O)N[C@H](C(=O)N[C@H](C(=O)N[C@@H](CCC(N)=O)C(=O)N[C@@H](CCCNC(=N)N)C(=O)N[C@H](C(=O)N[C@@H](CCCCN)C(=O)N[C@@H](CC(=O)O)C(=O)N[C@@H](Cc1ccccc1)C(=O)N[C@@H](CC(C)C)C(=O)N[C@@H](CCCNC(=N)N)C(=O)N[C@@H](CC(N)=O)C(=O)N[C@@H](CC(C)C)C(=O)N[C@H](C(=O)N1CCC[C@H]1C(=O)N[C@@H](CCCNC(=N)N)C(=O)N[C@H](C(=O)N[C@@H](CCC(=O)O)C(=O)N[C@@H](CO)C(=O)O)[C@@H](C)O)C(C)C)[C@@H](C)CC)C(C)C)[C@@H](C)CC | LC-MS | buffer with trypsin | 40 µM, 10 min, pH 7.5, 37 °C | reference: 0 h | remaining intact peptide | 31% and 27.8% and 34.1%
Cn1cc(-c2nc(N[C@@H]3CCCC[C@@H]3N)c(F)c3c2C(=O)NC3)cn1 | measured: Rectal haemorrhage | patients with relapsed or refractory AML | oral, 80 mg twice daily | – | hemorrhagic adverse events | 17%
S=c1oc(-c2ccccc2)nn1CN1CCN(Cc2ccccc2)CC1 | – | Wistar rat female | oral, 300 mg/kg, acute toxicity OECD 423 | – | serum ALT | 43 ± 3.2 U/L
CCCCCOc1ccc(-c2ccc(-c3ccc(C(=O)N[C@H]4C[C@@H](O)[C@@H](OCC[N+](C)(C)C)NC(=O)[C@@H]5[C@@H](O)[C@@H](C)CN5C(=O)[C@H]([C@@H](C)O)NC(=O)[C@H]([C@H](O)[C@@H](O)c5ccc(O)cc5)NC(=O)[C@@H]5C[C@@H](O)CN5C(=O)[C@H]([C@@H](C)O)NC4=O)cc3)cc2)cc1 | – | adult ICU patients, mITT, serum | dose not given, day 30 | – | alanine aminotransferase | 15.1 U/L
COc1cc2c(Oc3ccc4[nH]c(C)cc4c3F)ccnc2cc1OCC1(N)CC1 | – | paediatric recurrent refractory sarcoma | 10 mg | – | grade 1 or 2 sinus tachycardia | 0%
C=CC(=O)Nc1cc(Nc2nccc(Nc3cc(Cl)c(F)cc3C(C)(C)O)n2)c(OC)cc1N1CC[C@@H](N(C)C)C1 | treatment-emergent adverse events | human | oral, 200 mg, phase I clinical trial | – | incidence of blood creatine phosphokinase increased | 18.8%
O=C(O)CCCOc1ccc(F)cc1-c1cc(-c2ccccc2C(F)(F)F)n(-c2ccccc2)n1 | measured: Fbg | Crl:CD(SD) rats, female, blood | iv, 25 µg/kg, 1 day | – | blood chemistry | 204 ± 6.8 mg/dL
CC(=O)c1c(C)c2cnc(Nc3ccc(C4CCN(CCS(C)(=O)=O)CC4)cn3)nc2n(C2CCCC2)c1=O | – | human, plasma | oral, 25 mg once daily, day 21, multiple doses | – | Tmax | 1.17 h
CN[C@@H](C)C(=O)N[C@H]1CN(S(=O)(=O)c2cccc(S(=O)(=O)N3CC[C@H]4CC[C@@H](C(=O)NC(c5ccccc5)c5ccccc5)N4C(=O)[C@@H](NC(=O)[C@H](C)NC)C3)c2)CC[C@H]2CC[C@@H](C(=O)NC(c3ccccc3)c3ccccc3)N2C1=O | – | patients with advanced solid tumours | 0.3 mg, phase I monotherapy | – | treatment-related AST elevation incidence | 0%
C[C@H]1COCCN1c1nc(NCc2cccnc2C(F)(F)F)c2cccnc2n1 | – | anaesthetized rat | intravenous, 10 mg/kg | reference: control | heart rate change | -12.7%
